Published values of several laboratories.
Protocols differ between the studies behind these lines.
Slc6a4: Sodium-dependent serotonin transporter (Slc6a4, Rattus norvegicus, UniProt P31652)
Sequence of UniProt P31652 (whole entry, looked up): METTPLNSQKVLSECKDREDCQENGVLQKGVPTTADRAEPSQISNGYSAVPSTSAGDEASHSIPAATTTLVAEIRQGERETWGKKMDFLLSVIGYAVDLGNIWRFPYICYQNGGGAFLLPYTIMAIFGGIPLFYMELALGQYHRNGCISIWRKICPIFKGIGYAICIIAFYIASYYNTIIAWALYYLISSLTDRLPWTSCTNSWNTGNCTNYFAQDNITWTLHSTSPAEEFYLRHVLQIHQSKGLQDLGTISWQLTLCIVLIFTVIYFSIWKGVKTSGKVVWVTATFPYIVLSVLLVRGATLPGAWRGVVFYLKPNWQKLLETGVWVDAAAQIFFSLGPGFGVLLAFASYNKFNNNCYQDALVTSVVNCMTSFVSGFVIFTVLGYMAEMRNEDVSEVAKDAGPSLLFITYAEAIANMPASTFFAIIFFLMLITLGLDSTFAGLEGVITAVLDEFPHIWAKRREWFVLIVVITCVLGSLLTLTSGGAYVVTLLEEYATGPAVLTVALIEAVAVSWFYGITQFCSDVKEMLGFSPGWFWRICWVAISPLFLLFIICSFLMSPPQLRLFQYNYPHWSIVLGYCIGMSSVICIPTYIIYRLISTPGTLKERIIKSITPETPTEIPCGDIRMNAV
ADRA2A: Alpha-2A adrenergic receptor (ADRA2A, Homo sapiens, UniProt P08913)
Sequence of UniProt P08913 (whole entry, looked up): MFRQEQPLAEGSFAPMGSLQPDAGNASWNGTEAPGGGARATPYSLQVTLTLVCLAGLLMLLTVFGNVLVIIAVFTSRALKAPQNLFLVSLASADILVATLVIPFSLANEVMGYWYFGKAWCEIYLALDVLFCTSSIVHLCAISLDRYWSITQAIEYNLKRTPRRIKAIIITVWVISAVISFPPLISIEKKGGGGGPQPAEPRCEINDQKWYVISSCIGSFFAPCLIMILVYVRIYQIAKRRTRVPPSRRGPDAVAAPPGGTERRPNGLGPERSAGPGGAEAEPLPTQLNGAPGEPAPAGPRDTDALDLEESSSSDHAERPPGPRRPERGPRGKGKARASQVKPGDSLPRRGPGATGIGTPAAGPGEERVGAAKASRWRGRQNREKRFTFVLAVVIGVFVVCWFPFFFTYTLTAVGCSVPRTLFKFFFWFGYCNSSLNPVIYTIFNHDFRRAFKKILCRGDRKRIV
4'-phosphopantetheinyl transferase PptT: 4'-phosphopantetheinyl transferase PptT (Mycobacterium tuberculosis, UniProt O33336)
Sequence of UniProt O33336 (whole entry, looked up): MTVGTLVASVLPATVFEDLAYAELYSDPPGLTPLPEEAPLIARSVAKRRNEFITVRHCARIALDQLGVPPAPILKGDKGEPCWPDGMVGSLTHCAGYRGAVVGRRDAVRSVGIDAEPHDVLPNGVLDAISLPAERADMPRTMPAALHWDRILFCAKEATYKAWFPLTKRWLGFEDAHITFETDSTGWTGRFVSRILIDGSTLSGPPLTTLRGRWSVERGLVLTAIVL
Sequence of UniProt P33535 (whole entry, looked up): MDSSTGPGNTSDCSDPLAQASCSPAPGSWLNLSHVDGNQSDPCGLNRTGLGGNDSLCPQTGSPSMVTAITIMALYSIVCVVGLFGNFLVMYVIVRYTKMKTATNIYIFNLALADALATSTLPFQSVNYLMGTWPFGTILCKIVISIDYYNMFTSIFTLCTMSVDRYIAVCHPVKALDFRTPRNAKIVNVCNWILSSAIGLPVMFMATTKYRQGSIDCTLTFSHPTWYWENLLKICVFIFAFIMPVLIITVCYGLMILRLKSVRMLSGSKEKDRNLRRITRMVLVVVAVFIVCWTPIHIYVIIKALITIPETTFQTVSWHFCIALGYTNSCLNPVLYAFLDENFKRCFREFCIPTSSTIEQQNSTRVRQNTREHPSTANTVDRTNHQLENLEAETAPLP
Sequence of UniProt P33261 (whole entry, looked up): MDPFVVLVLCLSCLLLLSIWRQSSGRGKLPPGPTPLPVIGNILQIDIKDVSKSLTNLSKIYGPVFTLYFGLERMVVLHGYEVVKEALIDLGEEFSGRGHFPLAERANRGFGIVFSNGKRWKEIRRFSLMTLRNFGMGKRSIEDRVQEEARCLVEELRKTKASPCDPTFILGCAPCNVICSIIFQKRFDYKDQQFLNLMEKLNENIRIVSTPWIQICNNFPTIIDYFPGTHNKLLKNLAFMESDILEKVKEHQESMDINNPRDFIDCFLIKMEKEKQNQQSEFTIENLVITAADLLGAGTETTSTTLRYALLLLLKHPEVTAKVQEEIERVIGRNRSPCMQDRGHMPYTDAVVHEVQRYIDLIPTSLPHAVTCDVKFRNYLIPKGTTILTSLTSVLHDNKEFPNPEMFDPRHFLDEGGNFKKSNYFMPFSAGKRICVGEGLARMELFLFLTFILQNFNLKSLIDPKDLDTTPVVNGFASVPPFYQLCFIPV
Sequence of UniProt Q9BQI3 (whole entry, looked up): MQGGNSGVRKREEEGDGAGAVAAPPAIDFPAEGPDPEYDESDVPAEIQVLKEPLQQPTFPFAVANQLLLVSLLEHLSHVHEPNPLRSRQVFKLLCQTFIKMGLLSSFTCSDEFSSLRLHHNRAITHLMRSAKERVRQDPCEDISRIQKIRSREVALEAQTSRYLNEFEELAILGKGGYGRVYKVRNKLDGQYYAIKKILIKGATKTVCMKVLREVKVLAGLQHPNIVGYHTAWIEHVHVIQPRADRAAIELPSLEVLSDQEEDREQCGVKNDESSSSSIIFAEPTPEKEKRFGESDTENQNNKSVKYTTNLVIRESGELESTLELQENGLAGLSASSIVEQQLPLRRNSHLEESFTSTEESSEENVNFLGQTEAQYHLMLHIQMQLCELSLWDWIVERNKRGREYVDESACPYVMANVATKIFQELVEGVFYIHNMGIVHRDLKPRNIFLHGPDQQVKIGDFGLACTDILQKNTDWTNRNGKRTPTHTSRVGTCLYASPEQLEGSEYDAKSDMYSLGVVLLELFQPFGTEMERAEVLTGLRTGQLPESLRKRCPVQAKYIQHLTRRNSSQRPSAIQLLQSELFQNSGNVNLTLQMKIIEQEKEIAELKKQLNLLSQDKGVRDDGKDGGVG
Sequence of UniProt Q13546 (whole entry, looked up): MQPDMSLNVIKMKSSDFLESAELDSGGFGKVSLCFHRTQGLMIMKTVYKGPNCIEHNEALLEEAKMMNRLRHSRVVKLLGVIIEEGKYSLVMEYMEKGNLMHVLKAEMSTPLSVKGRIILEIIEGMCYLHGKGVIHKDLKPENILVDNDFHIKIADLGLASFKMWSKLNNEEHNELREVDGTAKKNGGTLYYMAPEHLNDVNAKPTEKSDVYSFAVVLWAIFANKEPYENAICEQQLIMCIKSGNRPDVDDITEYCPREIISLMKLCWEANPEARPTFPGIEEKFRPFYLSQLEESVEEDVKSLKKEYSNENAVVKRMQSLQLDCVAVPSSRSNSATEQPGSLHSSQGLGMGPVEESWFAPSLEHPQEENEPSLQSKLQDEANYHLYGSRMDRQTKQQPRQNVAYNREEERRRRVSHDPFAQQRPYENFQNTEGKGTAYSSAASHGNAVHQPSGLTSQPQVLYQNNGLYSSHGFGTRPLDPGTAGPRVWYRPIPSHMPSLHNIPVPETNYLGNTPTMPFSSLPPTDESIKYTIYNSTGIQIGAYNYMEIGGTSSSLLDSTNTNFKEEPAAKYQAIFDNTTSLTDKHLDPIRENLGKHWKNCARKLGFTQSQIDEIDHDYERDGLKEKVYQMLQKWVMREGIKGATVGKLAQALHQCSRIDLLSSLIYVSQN
Sequence of UniProt P9WG47 (whole entry, looked up): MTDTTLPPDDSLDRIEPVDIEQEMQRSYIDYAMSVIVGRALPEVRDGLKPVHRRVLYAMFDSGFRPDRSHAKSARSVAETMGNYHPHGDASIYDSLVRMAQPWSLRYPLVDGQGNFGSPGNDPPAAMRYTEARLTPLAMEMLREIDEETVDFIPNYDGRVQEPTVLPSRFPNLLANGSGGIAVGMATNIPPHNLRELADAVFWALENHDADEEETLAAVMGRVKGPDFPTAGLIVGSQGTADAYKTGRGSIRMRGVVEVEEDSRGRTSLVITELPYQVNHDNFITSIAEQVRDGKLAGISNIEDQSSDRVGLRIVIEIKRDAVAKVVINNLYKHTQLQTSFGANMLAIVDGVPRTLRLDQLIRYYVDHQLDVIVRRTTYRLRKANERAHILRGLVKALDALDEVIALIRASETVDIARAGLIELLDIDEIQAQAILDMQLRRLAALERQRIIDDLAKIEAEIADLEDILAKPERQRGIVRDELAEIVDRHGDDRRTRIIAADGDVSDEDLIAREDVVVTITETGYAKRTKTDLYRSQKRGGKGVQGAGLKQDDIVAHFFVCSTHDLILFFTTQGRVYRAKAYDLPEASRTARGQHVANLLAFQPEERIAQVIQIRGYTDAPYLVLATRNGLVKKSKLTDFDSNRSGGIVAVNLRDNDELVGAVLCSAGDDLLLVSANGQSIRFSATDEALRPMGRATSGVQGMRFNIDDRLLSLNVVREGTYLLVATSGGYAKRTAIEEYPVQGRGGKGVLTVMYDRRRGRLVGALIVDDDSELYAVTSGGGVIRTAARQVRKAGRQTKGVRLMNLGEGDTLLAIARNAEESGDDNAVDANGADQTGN
Sequence of UniProt O15244 (whole entry, looked up): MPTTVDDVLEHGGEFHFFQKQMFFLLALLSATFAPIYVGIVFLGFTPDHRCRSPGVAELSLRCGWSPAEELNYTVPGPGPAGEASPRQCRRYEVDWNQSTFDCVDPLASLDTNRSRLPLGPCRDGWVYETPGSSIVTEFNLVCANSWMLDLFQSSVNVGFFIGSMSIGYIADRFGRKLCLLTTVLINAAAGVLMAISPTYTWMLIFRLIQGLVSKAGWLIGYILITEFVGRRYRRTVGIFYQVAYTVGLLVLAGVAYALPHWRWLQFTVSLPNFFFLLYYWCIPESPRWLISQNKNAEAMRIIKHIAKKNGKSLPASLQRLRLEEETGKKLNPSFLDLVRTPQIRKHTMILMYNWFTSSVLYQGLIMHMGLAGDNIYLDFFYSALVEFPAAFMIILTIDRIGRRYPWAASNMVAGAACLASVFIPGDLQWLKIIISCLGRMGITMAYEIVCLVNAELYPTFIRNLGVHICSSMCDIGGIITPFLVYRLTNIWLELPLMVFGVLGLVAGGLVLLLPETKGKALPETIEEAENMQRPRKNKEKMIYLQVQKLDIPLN

| SMILES | tested on | test | setting | endpoint | value |
| --- | --- | --- | --- | --- | --- |
| CNC(C)Cc1ccc2c(c1)OCO2 (stereo not drawn) | SLC22A2 (Homo sapiens, UniProt O15244) | transporter uptake, inhibitor |  | IC50 | 1.91 µM |
| COc1ncccc1-c1cnn2ccc(N3CCN(C(=O)OC(C)C)CC3)nc12 | RIPK1 (Homo sapiens, UniProt Q13546) | binding, competition with immobilised ligand | 1 µM | remaining binding | 99% |
| [2H]c1c([2H])c([C@]2([2H])CCCN2C(=O)C(C)(C)Oc2ccc3cn[nH]c3c2)c([2H])c([2H])c1C([2H])([2H])[2H] | EIF2AK1 (Homo sapiens, UniProt Q9BQI3) | binding, competition with immobilised ligand | 1 µM | remaining binding | 86% |
| CC(C)NC(C)C(=O)c1cccc(Cl)c1 (stereo not drawn) | Slc6a4 | transporter uptake, inhibitor, radiometric |  | IC50 | 3.41 µM |
| CC(C)[C@@H]1NC(=O)[C@@H](CC(N)=O)NC(=O)[C@H](Cc2ccccc2)NC(=O)[C@@H](CCCN)NC(=O)[C@H](CCCN)NC(=O)[C@H]([C@@H](C)O)NC(=O)[C@@H](C(C)C)NC(=O)[C@H](C(C)C)NC(=O)[C@@H]([C@H](C)O)NC(=O)[C@@H](C(C)C)NC1=O | Balamuthia mandrillaris | parasite growth, ATP luminescence |  | IC50 | > 16 µg/mL |
| COc1ccc2c(c1)[C@]13CCCC[C@@H]1[C@H](C2)N(C)CC3 | ADRA2A | ligand displacement, radioligand |  | IC50 | 11.2 µM |
| C[C@H](N)C(=O)OCc1cc2[nH]c(=S)n(Cc3cncnc3)c(=O)c2cc1Cl | 4'-phosphopantetheinyl transferase PptT | enzyme activity, inhibitor, FP |  | IC50 | 3.07 µM |
| Cc1nnc2n1-c1ccc(Cl)cc1C(c1ccccc1)=NC2 | CYP2C19 (Homo sapiens, UniProt P33261) | enzyme activity, inhibitor, fluorescence |  | IC50 | 444 µM |
| C=CCN1CC[C@]23c4c5ccc(O)c4O[C@H]2C(=O)CC[C@]3(O)[C@H]1C5 | SLC6A2 (Homo sapiens, UniProt P23975) | transporter uptake, inhibitor, radiometric |  | IC50 | > 10 µM |
| O=c1[nH]c2ccc(Cl)cc2c(=S)n1Cc1cccnc1 | 4'-phosphopantetheinyl transferase PptT | enzyme activity, inhibitor, FP |  | IC50 | > 100 µM |
| CNC(C)C(=O)c1cccc(Cl)c1 (stereo not drawn) | Slc6a4 | transporter uptake, inhibitor, radiometric |  | IC50 | 1.1 µM |
| Nc1ncc(-c2nc(N3CCOCC3)nc(N3CCOCC3)n2)c(C(F)F)n1 | TNNI3K (Homo sapiens, UniProt Q59H18) | binding, competition with immobilised ligand | 10 µM | remaining binding | 100% |
| Cc1nn(C)cc1-c1nc2c(N3CCN(Cc4ccc(Cl)cc4)CC3)c(Cl)cnc2[nH]1 | PIK3CA (Homo sapiens, UniProt P42336, H1047L) | binding, competition with immobilised ligand | 1 µM | remaining binding | 100% |
| CC(NC(C)(C)C)C(=O)c1ccccc1 (stereo not drawn) | Slc6a4 | transporter uptake, inhibitor, radiometric |  | IC50 | > 10 µM |
| CN1CC[C@]23CCCC[C@H]2[C@H]1Cc1ccc(O)cc13 | ADRA2A | ligand displacement, radioligand |  | IC50 | 8.98 µM |
| O=c1c2cc(Cl)cnc2[nH]c(=S)n1Cc1cccnc1 | 4'-phosphopantetheinyl transferase PptT | enzyme activity, inhibitor, FP |  | IC50 | > 100 µM |
| COC(=O)/C=C/C(=O)N[C@@H]1CC[C@@]2(O)[C@H]3Cc4ccc(O)c5c4[C@@]2(CCN3CC2CC2)[C@H]1O5 | Oprm1 (Rattus norvegicus, UniProt P33535) | ligand displacement, radioligand | cell membranes | IC50 | 0.00408 µM |
| NS(=O)(=O)c1nnc(NC(=O)CN2CCN(c3cc4c(cc3F)c(=O)c(C(=O)O)cn4C3CC3)CC2)s1 | DNA gyrase subunit A/DNA gyrase subunit B (Mycobacterium tuberculosis, UniProt P9WG45+P9WG47) | enzyme activity, inhibitor |  | IC50 | 5.6 µM |
| N.N.[Cl][Pt][Cl] | JVM-3 | cell growth or viability, ATP luminescence | 72 h | IC50 | 0.6 µM |
| CC(C)Oc1cccc(CCN)c1 | ADRB2 (Homo sapiens, UniProt P07550) | calcium signal, antagonist, fluorescence |  | IC50 | 33 µM |
| O=c1c2cccc(Cl)c2[nH]c(=S)n1Cc1cccnc1 | 4'-phosphopantetheinyl transferase PptT | enzyme activity, inhibitor, FP |  | IC50 | 20 µM |
| C[C@]12CC[C@@H]3c4ccc(OS(=O)(=O)O)cc4CC[C@H]3[C@@H]1CCC2=O | SLC22A11 (Homo sapiens, UniProt Q9NSA0) | transporter uptake, inhibitor, radiometric |  | IC50 | 3.8 µM |
| CC(C)C(=O)OCc1cc2[nH]c(=S)n(Cc3cncnc3)c(=O)c2cc1Cl | 4'-phosphopantetheinyl transferase PptT | enzyme activity, inhibitor, FP |  | IC50 | 18 µM |
| CC(C)[C@H]1NC(=O)[C@H](Cc2ccccc2)NC(=O)CNC(=O)[C@@H](Cc2ccccc2)NC(=O)[C@H](CCCCN)NC(=O)[C@@H](CCCN)NC1=O | Balamuthia mandrillaris | parasite growth, ATP luminescence |  | IC50 | > 16 µg/mL |

Excerpt of the above:
| SMILES | tested on | test | setting | endpoint | value |
| --- | --- | --- | --- | --- | --- |
| Nc1ncc(-c2nc(N3CCOCC3)nc(N3CCOCC3)n2)c(C(F)F)n1 | TNNI3K (Homo sapiens, UniProt Q59H18) | binding, competition with immobilised ligand | 10 µM | remaining binding | 100% |
| Cc1nnc2n1-c1ccc(Cl)cc1C(c1ccccc1)=NC2 | CYP2C19 (Homo sapiens, UniProt P33261) | enzyme activity, inhibitor, fluorescence |  | IC50 | 444 µM |
